Assay results of several laboratories.
Compare with care: the assays were run in different laboratories. Numbers after ± are the reported error.
ADRB1: Beta-1 adrenergic receptor (ADRB1, Homo sapiens, UniProt P08588)
UniProt P08588, sequence (whole entry, looked up): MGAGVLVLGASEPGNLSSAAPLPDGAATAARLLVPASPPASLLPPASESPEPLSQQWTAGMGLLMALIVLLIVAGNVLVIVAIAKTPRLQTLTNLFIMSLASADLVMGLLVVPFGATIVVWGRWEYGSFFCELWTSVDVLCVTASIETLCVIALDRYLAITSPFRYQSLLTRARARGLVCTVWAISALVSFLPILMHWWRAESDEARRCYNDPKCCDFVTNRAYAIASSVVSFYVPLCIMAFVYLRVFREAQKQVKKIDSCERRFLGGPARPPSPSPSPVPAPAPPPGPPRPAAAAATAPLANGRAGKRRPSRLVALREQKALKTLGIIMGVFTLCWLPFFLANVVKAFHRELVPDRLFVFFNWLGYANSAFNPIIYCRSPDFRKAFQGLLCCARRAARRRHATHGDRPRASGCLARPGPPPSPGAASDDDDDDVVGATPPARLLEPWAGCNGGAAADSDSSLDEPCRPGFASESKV
UniProt Q13464, sequence (whole entry, looked up): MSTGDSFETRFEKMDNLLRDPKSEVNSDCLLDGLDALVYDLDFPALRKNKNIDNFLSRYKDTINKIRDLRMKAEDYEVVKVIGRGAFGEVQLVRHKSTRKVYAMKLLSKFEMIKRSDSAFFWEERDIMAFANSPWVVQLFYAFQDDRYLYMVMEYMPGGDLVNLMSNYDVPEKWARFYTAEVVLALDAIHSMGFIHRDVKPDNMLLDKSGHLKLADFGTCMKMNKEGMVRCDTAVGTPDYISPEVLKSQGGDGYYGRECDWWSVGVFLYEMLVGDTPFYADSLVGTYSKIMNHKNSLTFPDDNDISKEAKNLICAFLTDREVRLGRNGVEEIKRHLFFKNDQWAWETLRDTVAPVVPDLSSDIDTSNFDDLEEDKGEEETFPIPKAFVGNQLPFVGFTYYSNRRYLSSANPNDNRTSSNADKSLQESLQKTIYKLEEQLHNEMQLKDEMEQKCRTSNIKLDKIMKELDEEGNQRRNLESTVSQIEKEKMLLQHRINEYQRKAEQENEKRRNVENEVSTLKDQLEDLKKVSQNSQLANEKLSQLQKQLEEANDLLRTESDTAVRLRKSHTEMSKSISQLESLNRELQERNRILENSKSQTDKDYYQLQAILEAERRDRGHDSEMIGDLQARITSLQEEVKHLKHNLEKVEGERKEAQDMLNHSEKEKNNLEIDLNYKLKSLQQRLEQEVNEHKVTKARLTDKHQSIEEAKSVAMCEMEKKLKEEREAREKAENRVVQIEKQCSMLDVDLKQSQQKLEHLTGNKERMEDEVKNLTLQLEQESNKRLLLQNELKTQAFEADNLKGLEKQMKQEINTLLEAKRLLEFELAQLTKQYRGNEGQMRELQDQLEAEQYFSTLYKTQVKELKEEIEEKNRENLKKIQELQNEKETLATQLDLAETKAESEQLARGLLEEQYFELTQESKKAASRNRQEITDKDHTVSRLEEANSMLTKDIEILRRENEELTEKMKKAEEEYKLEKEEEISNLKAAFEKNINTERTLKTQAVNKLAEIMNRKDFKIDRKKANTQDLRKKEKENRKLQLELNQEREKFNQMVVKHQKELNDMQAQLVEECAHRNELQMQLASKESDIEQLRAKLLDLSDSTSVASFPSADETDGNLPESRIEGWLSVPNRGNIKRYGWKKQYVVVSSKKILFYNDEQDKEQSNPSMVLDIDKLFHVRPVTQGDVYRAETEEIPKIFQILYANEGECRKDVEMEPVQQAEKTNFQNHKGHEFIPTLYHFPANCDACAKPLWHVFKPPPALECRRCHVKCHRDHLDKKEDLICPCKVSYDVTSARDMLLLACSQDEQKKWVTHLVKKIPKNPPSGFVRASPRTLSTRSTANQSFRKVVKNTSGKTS
UniProt Q9UM73, sequence (whole entry, looked up): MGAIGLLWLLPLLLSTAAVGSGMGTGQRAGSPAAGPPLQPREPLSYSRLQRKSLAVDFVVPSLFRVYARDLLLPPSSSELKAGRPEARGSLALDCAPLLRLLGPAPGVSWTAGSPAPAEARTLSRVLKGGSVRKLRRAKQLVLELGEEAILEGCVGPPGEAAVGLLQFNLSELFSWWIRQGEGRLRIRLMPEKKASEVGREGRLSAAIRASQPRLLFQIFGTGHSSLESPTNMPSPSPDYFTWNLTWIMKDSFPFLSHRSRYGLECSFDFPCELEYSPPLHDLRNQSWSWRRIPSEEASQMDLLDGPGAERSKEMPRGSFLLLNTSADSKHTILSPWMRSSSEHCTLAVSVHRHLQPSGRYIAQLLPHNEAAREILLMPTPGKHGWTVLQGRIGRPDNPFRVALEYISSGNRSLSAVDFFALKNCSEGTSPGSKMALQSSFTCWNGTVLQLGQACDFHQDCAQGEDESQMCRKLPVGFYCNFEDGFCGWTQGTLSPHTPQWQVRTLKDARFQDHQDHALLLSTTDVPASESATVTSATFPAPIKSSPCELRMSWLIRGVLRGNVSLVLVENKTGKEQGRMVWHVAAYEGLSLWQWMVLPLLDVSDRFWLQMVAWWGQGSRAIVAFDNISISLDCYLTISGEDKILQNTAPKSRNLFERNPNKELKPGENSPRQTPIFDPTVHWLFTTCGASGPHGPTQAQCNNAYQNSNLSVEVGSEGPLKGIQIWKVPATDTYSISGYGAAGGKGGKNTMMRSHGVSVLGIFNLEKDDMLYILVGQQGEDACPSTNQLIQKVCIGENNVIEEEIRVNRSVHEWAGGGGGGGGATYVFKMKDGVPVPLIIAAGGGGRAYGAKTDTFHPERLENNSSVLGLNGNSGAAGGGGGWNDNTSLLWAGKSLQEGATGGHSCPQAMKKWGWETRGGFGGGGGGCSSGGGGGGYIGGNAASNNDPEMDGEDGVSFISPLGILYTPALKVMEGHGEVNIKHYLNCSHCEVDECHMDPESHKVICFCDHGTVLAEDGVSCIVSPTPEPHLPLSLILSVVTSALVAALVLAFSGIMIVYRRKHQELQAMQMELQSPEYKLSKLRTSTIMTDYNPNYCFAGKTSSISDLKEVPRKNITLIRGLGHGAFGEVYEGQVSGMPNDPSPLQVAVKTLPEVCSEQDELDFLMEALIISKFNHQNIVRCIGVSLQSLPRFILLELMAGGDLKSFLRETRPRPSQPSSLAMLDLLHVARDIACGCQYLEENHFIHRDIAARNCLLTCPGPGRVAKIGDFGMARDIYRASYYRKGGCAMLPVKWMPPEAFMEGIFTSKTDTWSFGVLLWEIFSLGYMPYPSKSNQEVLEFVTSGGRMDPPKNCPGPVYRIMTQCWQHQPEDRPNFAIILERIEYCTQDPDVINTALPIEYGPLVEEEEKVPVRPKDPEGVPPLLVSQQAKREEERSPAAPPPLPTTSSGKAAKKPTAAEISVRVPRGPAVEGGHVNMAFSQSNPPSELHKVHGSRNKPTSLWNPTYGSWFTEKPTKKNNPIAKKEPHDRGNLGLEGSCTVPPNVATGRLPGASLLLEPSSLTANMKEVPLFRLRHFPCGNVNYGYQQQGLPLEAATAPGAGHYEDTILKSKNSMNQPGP
UniProt O96028, sequence (whole entry, looked up): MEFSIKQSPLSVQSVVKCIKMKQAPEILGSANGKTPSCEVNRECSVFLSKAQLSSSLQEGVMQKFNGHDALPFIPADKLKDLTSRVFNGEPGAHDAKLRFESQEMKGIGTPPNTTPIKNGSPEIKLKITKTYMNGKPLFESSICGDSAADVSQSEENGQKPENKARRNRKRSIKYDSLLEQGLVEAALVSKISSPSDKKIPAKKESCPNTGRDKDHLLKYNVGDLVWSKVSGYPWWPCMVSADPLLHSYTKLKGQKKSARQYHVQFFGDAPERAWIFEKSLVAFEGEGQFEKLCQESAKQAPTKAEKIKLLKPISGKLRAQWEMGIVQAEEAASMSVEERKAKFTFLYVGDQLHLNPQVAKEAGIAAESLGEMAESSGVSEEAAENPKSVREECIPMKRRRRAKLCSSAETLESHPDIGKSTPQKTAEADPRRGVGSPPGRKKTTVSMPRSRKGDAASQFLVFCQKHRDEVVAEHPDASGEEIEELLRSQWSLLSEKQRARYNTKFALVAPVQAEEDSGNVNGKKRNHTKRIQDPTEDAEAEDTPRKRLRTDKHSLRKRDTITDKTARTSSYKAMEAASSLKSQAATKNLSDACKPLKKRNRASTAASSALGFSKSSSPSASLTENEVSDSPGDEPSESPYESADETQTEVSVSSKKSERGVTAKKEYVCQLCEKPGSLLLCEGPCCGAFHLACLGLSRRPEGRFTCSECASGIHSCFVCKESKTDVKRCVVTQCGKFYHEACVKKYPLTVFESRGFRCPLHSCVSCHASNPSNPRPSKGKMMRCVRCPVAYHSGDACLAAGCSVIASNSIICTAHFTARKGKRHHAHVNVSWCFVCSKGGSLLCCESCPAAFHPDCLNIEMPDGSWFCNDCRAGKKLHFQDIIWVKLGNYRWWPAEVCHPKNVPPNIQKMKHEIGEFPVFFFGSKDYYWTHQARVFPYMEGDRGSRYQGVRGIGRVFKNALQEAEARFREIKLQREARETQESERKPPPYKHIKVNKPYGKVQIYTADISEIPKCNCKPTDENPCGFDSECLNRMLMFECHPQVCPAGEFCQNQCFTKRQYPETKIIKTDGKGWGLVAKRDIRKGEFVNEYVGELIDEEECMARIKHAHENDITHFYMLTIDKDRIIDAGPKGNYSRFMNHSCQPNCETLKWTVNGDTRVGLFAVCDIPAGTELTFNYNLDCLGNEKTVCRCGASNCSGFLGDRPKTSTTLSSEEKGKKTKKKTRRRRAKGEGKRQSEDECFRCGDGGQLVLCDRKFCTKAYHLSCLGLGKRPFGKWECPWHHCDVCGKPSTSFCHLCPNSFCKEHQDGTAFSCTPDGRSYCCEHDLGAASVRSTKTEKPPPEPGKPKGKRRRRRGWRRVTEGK

CN(/N=C/c1ccccc1C(=O)O)c1nc(-c2ccccc2Cl)cs1 — inhibition (PTK2B (Homo sapiens, UniProt Q14289); enzyme activity, inhibitor; 1 µM): -27.6%
CCc1nnc(-c2c(OC)cc(-c3cnc4cc(-c5cnn(C)c5)ccn34)cc2OC)o1 — inhibition (ADRB1; specific binding, agonist, radioligand binding; 10 µM; baseline: control specific binding): -2%
N#Cc1ccc(N2N=C3c4ccc(C(=O)O)cc4CCC3C2C2CCCC2)cc1Cl (stereo not shown) — inhibition (NSD2 (Homo sapiens, UniProt O96028); enzyme activity, inhibitor; 10 µM): 28%
O=C1NC2(CC2)COc2ncc(F)cc2[C@H]2COCCN2c2ccn3ncc1c3n2 — organ-to-body weight ratio (Sprague-Dawley rat, female, spleen; oral, 2.5 mg/kg/day, 4 weeks dosing, end of recovery): 0.277 ± 0.083%
O=C1c2ccccc2CCCN1CCCCN1CCN(c2cccc(Cl)c2Cl)CC1 — inhibition (HTR1D (Homo sapiens, UniProt P28221); radioligand binding; concentration not given, added: [3H]5-CT): 97.5%
O=C(O)c1ccccc1/C=N/Nc1nc(-c2ccccc2Cl)cs1 — inhibition (CSNK1E (Homo sapiens, UniProt P49674); enzyme activity, inhibitor; 1 µM): 10.5%
CC(C)[C@H]1NC(=O)C[C@H]2/C=C/CCSSC[C@@H](NC1=O)C(=O)N[C@H](Cc1cccc3ccccc13)C(=O)NCC(=O)O2 — inhibition (ALK (Homo sapiens, UniProt Q9UM73); enzyme activity, inhibitor; 10 µM): 2.1%
CN(C)[C@H]1C[C@@]23CC[C@@]4(O2)C(=CC[C@]2(C)[C@@H](c5ccc6ccncc6c5)CC[C@H]24)C=C3[C@@H](O)[C@@H]1O — inhibition (FER (Homo sapiens, UniProt P16591); ATP probe labelling, inhibitor, KiNativ profiling; 0.1 µM): -2%
Cc1ccc(NC(=O)Nc2cccc(C(=O)N3CCC(C)CC3)c2)cc1 — inhibition (Beta-lactam-inducible penicillin-binding protein (pbp, Staphylococcus aureus, UniProt P07944); Bocillin-FL labelling, fluorescence polarization; 50 µM): no inhibition
CS(C)(=O)=Nc1ccc(-c2ccc(-c3nc4cc(O[C@@H]5CO[C@H]6[C@@H]5OC[C@H]6O)[nH]c4cc3F)cc2)cc1 — inhibition (CXCR2 (Homo sapiens, UniProt P25025); ligand displacement, radioligand; 10 µM): -6%
CCCCCCCCCCCCCCCCCC(=O)NC[C@H]1CC[C@H](C(=O)N[C@@H](CCC(=O)NCCCOCCOCCOCCCNC(=O)COCC(=O)N[C@@H](Cc2ccc(O)cc2)C(=O)NC(C)(Cc2ccccc2)C(=O)N[C@@H](CC(C)C)C(=O)N[C@@H](CCCC)C(=O)N[C@@H](CCCNC(=N)N)C(=O)N2CCC[C@H]2C(=O)N[C@@H](CCCNC(=N)NC)C(=O)N[C@@H](CC(N)=O)C(N)=O)C(=O)O)CC1 (stereo partly shown) — inhibition (NPBWR2 (Homo sapiens, UniProt P48146); antagonist, DiscoverX GPCR panel; 1 µM): 65%
N[C@H](C(=O)N1CCCC1)C1CCN(c2nccc3c(-c4ncc(Cl)cc4Cl)cccc23)CC1 — inhibition (ROCK1 (Homo sapiens, UniProt Q13464); kinase activity, inhibitor; 10 µM, added: ATP 1 mM): -0.4%
CN[C@@H]1[C@H](O)[C@H](NC)[C@H]2O[C@]3(O)[C@H](O[C@@H]2[C@H]1O)O[C@H](C)C[C@H]3NC(=O)Cc1cc(Cl)ccn1 — inhibition (ADRB1; ligand displacement, radioligand; 10 µM): 2%
Cc1ccc2c(n1)c(-c1cccc(S(C)(=O)=O)c1)c(C)n2C/C(F)=C/CN — inhibition (protein serine/threonine kinase (rat); 10 µM, rat): -2%
C[C@H](NCc1ccc(-c2ccc(C(F)(F)F)cc2)cc1)C(N)=O — inhibition (PIM3 (Homo sapiens, UniProt Q86V86); cell-free assay, competition with immobilised ligand; 1 µM): 5%
COc1ccc(F)cc1S(=O)(=O)Nc1cnc2c(c1)C(=O)NCCO2 — inhibition (nicotinic acetylcholine receptor; radioligand binding; 10 µM): -3%
